Measurements pooled from the literature.
A part holds a random share of what one study measured. Substitutions count along the parent as printed.

Study 1
Target: ABI1, truncated, D143A, DHFR fusion (Arabidopsis thaliana)
Method: DHFR PCA, deep sequencing
Sample: yeast
Notes: methotrexate growth selection, single substitutions
With: (+)-ABA 0.032 µM
Baseline: wild-type fitted maximum
Direction: higher = stronger binding
Endpoint: relative binding score
Parent: PYL1, truncated, DHFR fusion (Arabidopsis thaliana); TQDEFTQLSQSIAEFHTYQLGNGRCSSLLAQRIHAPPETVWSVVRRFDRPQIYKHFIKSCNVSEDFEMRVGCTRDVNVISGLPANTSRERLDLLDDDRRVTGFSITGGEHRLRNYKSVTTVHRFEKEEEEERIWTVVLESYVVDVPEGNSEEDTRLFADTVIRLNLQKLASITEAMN
E127Y: 28.9%
E129A: 47.2%
E130K: 50.5%
S27P: 0.952%
D75C: 9.25%
E147W: -6.79%
R74A: 4.26%
D144N: -0.915%
L166G: 3.05%
Y18V: 1.22%
L164G: 5.65%
E125F: 27.8%
V70G: -0.788%
G21S: 26.8%
D95K: -1.07%
S150W: -4.2%
V40Q: 1.21%
I105S: -0.722%
L138N: -12.2%
R69L: 1.27%
Y53V: 8.01%
E152S: 8.8%
E128P: 12.1%
G23K: 9.88%
A84S: 36.2%

Study 2
Target: CCNB1, cyclin fold, Cln2 fusion (human)
Method: yeast growth competition, sequencing
Sample: yeast
Notes: strong parent motif
Baseline: not given
Direction: higher = stronger binding
Endpoint: normalised enrichment score
Parent: RBL2 docking peptide (human); STTRRRLFVENDS
STTRRRLFVENNS [D12N]: 0.222
SHTRRRLFVENDS [T2H]: 1.26
STTRRRLFVENHS [D12H]: 0.494
STTKRRLFVENDS [R4K]: 0.514
STTRRRLFVENDR [S13R]: 1.46
SCTRRRLFVENDS [T2C]: 0.962
STTRRRLFVENDF [S13F]: 1.54
STTRRRLYVENDS [F8Y]: 0.0995
SETRRRLFVENDS [T2E]: 1.04
SDTRRRLFVENDS [T2D]: 0.725
STTRRKLFVENDS [R6K]: 1.11
STTRRRGFVENDS [L7G]: -0.384
STTRRRLFVENIS [D12I]: 0.975
STTRCRLFVENDS [R5C]: 0.814
STTVRRLFVENDS [R4V]: 1.66
STTRGRLFVENDS [R5G]: 0.26
SGTRRRLFVENDS [T2G]: 1.63
STTRARAFVENDS [R5A L7A]: 0.111
STTARRLFVENDS [R4A]: 1.27
STTFRRLFVENDS [R4F]: 1.52
STTRRRLTVENDS [F8T]: 1.53
STTRRRLFVENDC [S13C]: 1.06
STTRRVLFVENDS [R6V]: 0.999
STTRRNLFVENDS [R6N]: 0.0445

Study 3
Target: Ras GTPase-activating protein-binding protein 1, full length (G3BP1, Homo sapiens, UniProt Q13283)
UniProt Q13283, sequence (whole entry, looked up): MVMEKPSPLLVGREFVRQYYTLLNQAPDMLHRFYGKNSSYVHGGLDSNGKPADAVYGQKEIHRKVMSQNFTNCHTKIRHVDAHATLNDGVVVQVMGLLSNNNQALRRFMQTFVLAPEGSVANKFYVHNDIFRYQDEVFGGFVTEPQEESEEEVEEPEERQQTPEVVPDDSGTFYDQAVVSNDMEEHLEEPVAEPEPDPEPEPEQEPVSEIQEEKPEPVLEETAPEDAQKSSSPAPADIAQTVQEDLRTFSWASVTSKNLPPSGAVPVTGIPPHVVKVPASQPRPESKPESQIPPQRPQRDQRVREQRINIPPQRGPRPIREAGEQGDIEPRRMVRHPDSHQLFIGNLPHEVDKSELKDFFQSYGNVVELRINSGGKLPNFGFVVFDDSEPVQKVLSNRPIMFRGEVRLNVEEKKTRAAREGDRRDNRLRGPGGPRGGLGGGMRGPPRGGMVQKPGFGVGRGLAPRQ
Method: RNA Bind-n-Seq
Molecule type: RNA
Sample: in vitro
Concentration: 200 nM
Notes: whole 134-nt RNA, ends assumed
With: 150 mM KCl
Baseline: input library
Direction: higher = stronger binding
Endpoint: log2 enrichment
Constant ends, left off below: GGGAGUUCUACAGUCCGACGAUC … UGGAAUUCUCGGGUGUCAAGG
AAGUCCUGUGCUACACAUCGUAUGUACCGAAUCGGGGUUUGGGGAGGGGAAAGGGGAAAGUAUUAUGUUACGCCGUUCGGAUCUGCACUU: 0.607
ACCAUGCAGGUGGGCAUCUUUGGGAAGUGGGGCAAGGCGGGGAUAGGGAGGGGGGUAACACUUUGGGAACAGGUGGUCCCAGGUCGUUUC: 1.28
CAAGUCCUGUGCUACACAUCGUAUGUACCGAAUCGGGGUUUGGGUUUGGGGUUUGGAAAGUAUUAUGUUACGCCGUUCGGAUCUGCACUU: -0.221
CAAGUCCUGUGCUACACAUCGUAUGUACCGAAUCGGAGGUUUUUGGAAAAAAAGGAAAGUAUUAUGUUACGCCGUUCGGAUCUGCACUUC: -1.05
UGGCCCUGGUGGCAUGCGGGGAGGAAGAGGUGGCCUCAUGGAUCGUGGUGGUCCCGGUGGAAUGUUCAGAGGUGGCCGUGGGGGAGACAG: 0.359
CACAGACAACACGAAACCACACAGACACAGAGGGAAGGGGUUGGGAUGGGGACAGGGUGCACAGCAGGGCGGGGUAGGACCCCAGCCCCU: 1.74
UCCUCAAGUCCUGUGCUACACAUCGUAUGUACCGAAUCGGUGGUGGUGGGGAAAGUAUUAUGUUACGCCGUUCGGAUCUGCACUUCCAGC: -0.227
UGGGAGGUGGAUUUUGUUUAUUUUUUUAGUUCAUUUCCAGGGGUGGGAAUUUUUUUUUAAUAUGUGUCAUGAAUAAAGUUGUUUUUGAAA: 0.0792
CCUCAAGUCCUGUGCUACACAUCGUAUGUACCGAAUCGGUGGUUUGGUUUGGAAAGUAUUAUGUUACGCCGUUCGGAUCUGCACUUCCAG: -0.366

Study 4
Target: UBE2V2 UBC core domain (UniProt Q15819)
Method: yeast two-hybrid
Sample: yeast
Notes: mostly zero background
Baseline: not given
Direction: higher = stronger interaction
Endpoint: lacZ reporter activity
B1: RNF135 RING domain (UniProt Q8IUD6); chain PVWLAEDDLGCIICQGLLDWPATLPCGHSFCRHCLEALWGARDARRWACPTCRQGAAQQPHLR
B2: RNF24 RING domain (UniProt Q9Y225); chain KVKELNLHELCAVCLEDFKPRDELGICPCKHAFHRKCLIKWLEVRKVCPLCNMPVLQLAQLH
B3: TRIM48 RING domain (UniProt Q8IWZ4); chain ISQVFQRELTCPICMNYFIDPVTIDCGHSFCRPCFYLNWQDIPILTQCFECIKTIQQRNLKT
B4: DTX1 RING domain (UniProt Q86Y01); chain QKVKNPPDEDCTICMERLVTASGYEGVLRHKGVRPELVGRLGRCGHMYHLLCLVAMYSNGNKDGSLQCPTCKAIYGEKTGTQ
B5: PRKN RING domain (UniProt O60260); chain LIATNSRNITCITCTDVRSPVLVFQCNSRHVICLDCFHLYCVTRLNDRQFVHDPQLGYSLPCVAGCPNSLIKELHH
Target sequence (chain): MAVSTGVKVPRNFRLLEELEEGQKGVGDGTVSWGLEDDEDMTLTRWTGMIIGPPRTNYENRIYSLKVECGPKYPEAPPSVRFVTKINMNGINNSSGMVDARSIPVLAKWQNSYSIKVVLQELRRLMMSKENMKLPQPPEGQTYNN
QLRRLQEERTCKVCLDRAVSIVFVPCGHLVCAECAPGLQLCPICRAPVRSRVRTF (BIRC7 RING domain (UniProt Q96CA5)): 0
B1 (RNF135 RING domain): 0
B2 (RNF24 RING domain): 0
KITELNPHLMCVLCGGYFIDATTIIECLHSFCKTCIVRYLETSKYCPICDVQVHKTRPLL (BMI1 RING domain (UniProt P35226)): 0
MDDQGCPRCKTTKYRNPSLKLMVNVCGHTLCESCVDLLFVRGAGNCPECGTPLRKSNFRV (MNAT1 RING domain (UniProt P51948)): 0
B3 (TRIM48 RING domain): 0
B4 (DTX1 RING domain): 0
B5 (PRKN RING domain): 0

Study 5
Target: Histone acetyltransferase KAT6A, both winged helices, GST fusion (KAT6A, Homo sapiens, UniProt Q92794, residues 1-181)
Method: protein binding microarray
Molecule type: double-stranded DNA, one strand shown
Sample: in vitro
Concentration: not given
Notes: 8-mer, flanks averaged, mean of 2 arrays, mostly near background
Baseline: not given
Direction: higher = stronger binding
Endpoint: E-score
Target sequence (chain): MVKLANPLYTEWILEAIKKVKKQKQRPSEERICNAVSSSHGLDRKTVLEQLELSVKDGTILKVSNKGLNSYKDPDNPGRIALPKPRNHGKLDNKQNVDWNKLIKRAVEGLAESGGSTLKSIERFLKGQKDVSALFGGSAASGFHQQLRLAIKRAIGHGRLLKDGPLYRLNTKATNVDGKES
AAATTTCG: -0.0685
CAAGCTAG: -0.246
ACGGCGTA: 0.251
AAGAATAT: -0.0832
CCCCGACG: 0.258
CTAGTATC: -0.214
GAGTGCGA: -0.0147
AAGGTTAC: -0.0869
AGCAGACT: -0.186
ATCAGGGC: -0.102
AAGTCAAC: -0.141
AGCAATGC: -0.0702
AGTCTGTA: -0.0735
TCTGAACA: -0.0215
TCCACGCA: 0.0386
ACTGCTGC: -0.089
AACAGAGG: -0.216
ATGGCGCA: 0.209
AACCCGGG: 0.322
GCGTACCC: 0.128
ATCTACTC: 0.00223
ATAAGAGC: 0.101
CGACTTGC: 0.0393
AGAGAACA: -0.0818
CCGTCCCC: 0.128

Excerpt of the above (study 1):
E130K: 50.5%
S27P: 0.952%
D75C: 9.25%
E147W: -6.79%
R74A: 4.26%
D144N: -0.915%
L166G: 3.05%
Y18V: 1.22%
L164G: 5.65%
E125F: 27.8%
V70G: -0.788%
G21S: 26.8%
